Published values of several laboratories.
Each numbered part is a random draw from the data of one study; scales do not carry over between parts. Positions count from the first letter of the parent shown.

Series 1
Target: Ras GTPase-activating protein-binding protein 1, full length (G3BP1, Homo sapiens, UniProt Q13283)
Sequence of UniProt Q13283 (whole entry, looked up): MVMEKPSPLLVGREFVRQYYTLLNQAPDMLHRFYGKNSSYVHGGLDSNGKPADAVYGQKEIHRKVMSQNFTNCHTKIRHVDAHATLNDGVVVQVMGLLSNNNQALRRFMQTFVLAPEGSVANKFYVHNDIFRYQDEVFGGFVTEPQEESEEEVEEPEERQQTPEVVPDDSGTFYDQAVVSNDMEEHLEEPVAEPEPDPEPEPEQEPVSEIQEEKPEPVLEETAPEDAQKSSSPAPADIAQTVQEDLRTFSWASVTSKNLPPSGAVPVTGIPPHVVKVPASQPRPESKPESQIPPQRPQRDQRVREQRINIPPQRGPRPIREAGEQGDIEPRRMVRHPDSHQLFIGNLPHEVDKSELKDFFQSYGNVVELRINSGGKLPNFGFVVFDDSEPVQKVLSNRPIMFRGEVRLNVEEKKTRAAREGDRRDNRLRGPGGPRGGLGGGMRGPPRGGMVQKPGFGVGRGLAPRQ
Technique: RNA Bind-n-Seq
Molecule type: RNA
Medium: in vitro
Concentration: 200 nM
Notes: whole 134-nt RNA, ends assumed
Together with: 150 mM LiCl
Relative to: input library
Direction: higher = stronger binding
Endpoint: log2 enrichment
Library: 7-deaza-guanosine replaces G
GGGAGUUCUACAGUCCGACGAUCACCAUGCAGGUGGGCAUCUUUGGGAAGUGGGGCAAGGGGGGGAUAGGGAGGGGGGUAACACUUUGGGAACAGGUGGUCCCACGUCGUUUCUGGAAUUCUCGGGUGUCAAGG: 0.322
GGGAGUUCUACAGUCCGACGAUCUUUCUAGGCAAGAGGAGGAACGACGUAGAAGAGAGGAAGAGAUGAUGAUUCGUCAACGUGAGAUGGAAGAACAAAUGAGGCGCCAAAGAGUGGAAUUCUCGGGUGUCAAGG: 0.999
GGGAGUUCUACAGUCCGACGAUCUCCUCAAGUCCUGUGCUACACAUCGUAUGUACCGAAUCGGAGGGAGGAGGGGAAAGUAUUAUGUUACGCCGUUCGGAUCUGCACUUCCAGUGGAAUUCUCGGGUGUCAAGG: 0.415
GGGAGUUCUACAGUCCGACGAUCAAGUCCUGUGCUACACAUCGUAUGUACCGAAUCGGGGUUUGGGGUUUGGGUUUGGGAAAGUAUUAUGUUACGCCGUUCGGAUCUGCACUUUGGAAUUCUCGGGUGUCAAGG: -0.416
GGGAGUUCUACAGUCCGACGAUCAGUCCUGUGCUACACAUCGUAUGUACCGAAUCGGAAAAAGGAAAAAGGAAAAAGGGGAAAGUAUUAUGUUACGCCGUUCGGAUCUGCACUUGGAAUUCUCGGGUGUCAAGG: -1.15
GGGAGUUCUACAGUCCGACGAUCUGGCCCUGGUGGCAUGCGGGGAGGAAGAGGUGGCUUCAUGGAUCGUGGUGGUCCCGGUGGAAUGUUCAGAGGUGGCCGUGGUGGAGACAGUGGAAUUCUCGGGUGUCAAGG: 0.28
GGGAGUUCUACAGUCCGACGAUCACCAUGCAGGUGGGCAUCUUUGGGAAGUGGGGCAAGGGGGGGAGAGGGAGGGGGGUAACACUUUGGGAACAGGUGGUCCCAGGUCGUUUCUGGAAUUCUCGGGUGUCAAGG: 0.251
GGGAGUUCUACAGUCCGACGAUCAGUCCUGUGCUACACAUCGUAUGUACCGAAUCGGGGCCCCGGCCCCGGGCCCCGGGGAAAGUAUUAUGUUACGCCGUUCGGAUCUGCACUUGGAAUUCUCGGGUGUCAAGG: -2.15
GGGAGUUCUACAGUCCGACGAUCCAAGUCCUGUGCUACACAUCGUAUGUACCGAAUCGGGGUGGGGAGGGGAAAGGGGAAAGUAUUAUGUUACGCCGUUCGGAUCUGCACUUCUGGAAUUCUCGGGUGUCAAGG: -0.225
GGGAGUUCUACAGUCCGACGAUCGCAGGAAGUAAAAACAAAUGGAAAUGCUUCGGAUAGUGGCAGGGGUGGGGGUUGCUAAGGAAAGGGUGGAAUGGGAGUGGGUAAAGAGUUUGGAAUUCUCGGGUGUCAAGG: 0.112
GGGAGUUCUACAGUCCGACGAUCCAAGUCCUGUGCUACACAUCGUAUGUACCGAAUCGGGGUGGGGUGGGGAAAGGGGAAAGUAUUAUGUUACGCCGUUCGGAUCUGCACUUCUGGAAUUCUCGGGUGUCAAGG: -0.977

Series 2
Target: JUNB, bZIP domain (human)
Technique: DHFR protein complementation
Medium: yeast
Notes: single substitutions, most at no-binding floor
Relative to: wild-type JUN-FOS pair
Direction: higher = stronger binding
Endpoint: binding fitness
Starting sequence: JUN, bZIP domain (human); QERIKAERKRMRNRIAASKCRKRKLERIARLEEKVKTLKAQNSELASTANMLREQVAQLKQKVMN; partner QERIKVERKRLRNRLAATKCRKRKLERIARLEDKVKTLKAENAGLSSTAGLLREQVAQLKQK
R30P: -1.42 natural log
L52Q: -1.52 natural log
N42G: -1.37 natural log
M51W: -1.33 natural log
K34M: -0.973 natural log
A40H: -1.23 natural log
E33M: -1.26 natural log
A57C: -1.39 natural log
L52T: -1.52 natural log
S47A: -0.878 natural log
L45D: -1.51 natural log
L52G: -1.52 natural log
R30M: -0.992 natural log
Q58S: -1.09 natural log
L45F: -1.52 natural log
E44W: -1.44 natural log
I28V: -1.32 natural log

Series 3
Target: ABI1, truncated, D143A, DHFR fusion (Arabidopsis thaliana, UniProt P49597)
Technique: DHFR PCA, dose-response
Medium: yeast
Notes: Hill fit, not affinity, not high confidence
Together with: (+)-ABA, dose series
Direction: lower = more sensitive
Endpoint: ABA EC50
Starting sequence: PYL1, truncated, DHFR fusion (Arabidopsis thaliana, UniProt Q8VZS8); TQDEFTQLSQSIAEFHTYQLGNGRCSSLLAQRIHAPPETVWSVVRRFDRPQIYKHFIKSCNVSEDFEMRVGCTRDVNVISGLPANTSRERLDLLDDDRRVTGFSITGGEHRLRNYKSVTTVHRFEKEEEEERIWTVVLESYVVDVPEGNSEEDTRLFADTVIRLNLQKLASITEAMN
F103T: 1170 µM
T119W: 72.4 µM
L29D: 2140 µM
T154N: 747 µM
F47K: 2060 µM
F157W: 318 µM
V78Q: 696 µM
T173K: 599 µM
I162D: 0.00348 µM
W41A: 17.9 µM
T160D: 1130 µM
L138K: 197 µM
F47C: 8.67 µM
V40D: 0.437 µM
F56P: 233 µM
R74Y: 7.55 µM
Q31P: 0.206 µM
D159Q: 51 µM

Series 4
Target: RNA binding protein fox-1 homolog 2, RRM domain, GST-SBP tag (RBFOX2, Homo sapiens, UniProt O43251-10, residues 100-194)
Technique: RNA Bind-n-Seq
Molecule type: RNA
Medium: in vitro
Concentration: 365 nM
Notes: natural RNA segment, single round, ends assumed
Relative to: no-protein control
Direction: higher = stronger binding
Endpoint: RBNS enrichment (R)
Residues (chain): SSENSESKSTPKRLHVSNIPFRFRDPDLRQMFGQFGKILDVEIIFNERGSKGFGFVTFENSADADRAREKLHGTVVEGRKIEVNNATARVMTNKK
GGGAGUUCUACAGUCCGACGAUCAGAGGGAUUAAGCCCACACCCUGGCUUCCAUUCCAUAUCAGGUACAGGAUUUGAUGUUAUUAACAUUUGUCGUCAUACCUCAUAAGUCGGUCCCUGCCUUGUCUGUCUAGUGGAAUUCUCGGGUGCCAA: 0.29
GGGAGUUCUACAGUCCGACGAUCCUCUCUUCUAGGGCUUCCCACCAUCAGCCCCUCCCACUUGAGACUGGUCUUUGGGAGGCAAUAGGCCACCAUGCCUGGUCAGCACCAAUUCAAGCCAUGCCAGGAAUCUGUGGAAUUCUCGGGUGCCAA: 0.357
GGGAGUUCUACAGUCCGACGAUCGAAGAGACCCUGAGGGAAGGGCAAGGCUUUUCCUUUUUGGCUCUGGUUCCCAGGGUCAUCCGCCUUCAACUCUGCAUGAGAUCUCCCUCCUAGAGACCAACUCUGUUUCAUGGAAUUCUCGGGUGCCAA: 1.38
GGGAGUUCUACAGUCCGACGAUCAGAUGGAGGAGCCCUACCUGCAAGGAUCCAAAGAGGAGGGCACUCCCCUCAAACUCAAGUGUGAGCUCUGUGGACGGGUGGACUUUGCCUACAAGUUCAAGCGUUCCAAGUGGAAUUCUCGGGUGCCAA: 0.312
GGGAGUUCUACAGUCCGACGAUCAAUGUAGGAGAGAAUUAAGAAUCUGUUAAUUAAAAUCCAAACAGAGCUUAUUUCAGUAGUCAAGUUACCUGACAUGAUAAUUAUUUCUGCAGGAUAAUUGAUGUUUUAUGUGGAAUUCUCGGGUGCCAA: 0.366
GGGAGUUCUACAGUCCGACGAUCAGACAUUCUGUAAUAAGAUUAAAACCUAAAGUCAGCUGUGUAACAUUCCAUGAAAGAUGCAUUCAUUUAUUGAAGAUGACAAAAAAGGGAGUCAGAUAUAUUCUGGAAGCUGGAAUUCUCGGGUGCCAA: 0.403
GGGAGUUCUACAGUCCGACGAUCCAAAUCUUGGUCUAUGAGGUCUACACCAAUAACACCCUACUCUGGAAUGGUAACAGAGCCAGCGCUGAAGUCUCCUUUCUUCCUCCCAUCUGGAAGAACAUCAAGAUAUCUGGAAUUCUCGGGUGCCAA: 0.326
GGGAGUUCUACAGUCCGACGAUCAGCAGGUCUGGUGACACAGCUAGGGUCUUCCUAGCAGCUCCUCCUCCUCCCUCCCAAGGCCCCCAGGAAUCCCUUCCUCCCAUGUCCUGGCAGCAGGACCCCAGGCUACAUGGAAUUCUCGGGUGCCAA: 0.352
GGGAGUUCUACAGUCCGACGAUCCCCCAGUUCUGUAGCAGCCGAUCAGCGUCACCUUUGAAGUAUACAUGAGAGAAAUAUAUUUACAAAUGCUUUAUUCUCUUCUUUAAUAAAAAGUGCACCGGUAUUCUAGAUGGAAUUCUCGGGUGCCAA: 1.09
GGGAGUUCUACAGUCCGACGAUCCCAUUCUUCUGACCCUCUAGAUAAGCGUAGCCUACAACCCAGUGCCGUAAGUUUCCAAGAUUCAAGAAGUGUAUCAACCCAGGCAAUAUCUCAGGAUAUGGAAGUUUCUGUGGAAUUCUCGGGUGCCAA: 0.26
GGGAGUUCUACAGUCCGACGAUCAGGCUCAGUCUUUAGAGGCACUCCCUCUAGUUGAUUAGCACUGUCUUCUGUGGAGUUUGGUUCAAAGACUGGUAUGGCAGAUAGAGGCUUGGAUGCAUUUUUCAUCAGGCUGGAAUUCUCGGGUGCCAA: 0.528
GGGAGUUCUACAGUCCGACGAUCAAACUCAGAAGAAAAGCAGGCUUAGCUAAGAGAUUUUCACUAUUAACCUGUUUUUAUUAGAUCAGCGAAGACAGUCAUGCAUCGCUUAAUGAUGGGGAUGCAUUCUGAGAUGGAAUUCUCGGGUGCCAA: 0.398

Series 5
Target: CCNA1, cyclin fold, Cln2 fusion (human)
Technique: yeast growth competition, sequencing
Medium: yeast
Notes: weak parent motif
Relative to: not given
Direction: higher = stronger binding
Endpoint: normalised enrichment score
Starting sequence: CDKN1A docking peptide (human); SKACRRLFGPVDS; partner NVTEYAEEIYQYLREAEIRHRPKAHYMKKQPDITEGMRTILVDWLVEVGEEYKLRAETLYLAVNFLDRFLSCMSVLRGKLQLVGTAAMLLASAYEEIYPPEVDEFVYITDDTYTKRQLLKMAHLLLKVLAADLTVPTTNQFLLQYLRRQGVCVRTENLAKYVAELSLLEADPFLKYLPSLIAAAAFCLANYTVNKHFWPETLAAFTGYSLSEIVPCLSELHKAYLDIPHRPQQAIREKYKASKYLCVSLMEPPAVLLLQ
SKACRRLFGYVDS [P10Y]: 0.132
SKAERRLFGPVDS [C4E]: -0.166
SKACRRLFGAVDS [P10A]: 0.43
SKQCRRLFGPVDS [A3Q]: 0.0342
SKACRRLFGPCDS [V11C]: 0.538
SKACRRLFGPQDS [V11Q]: 0.64
SKACRRLFGPNDS [V11N]: 0.867
SKACRRLFLPVDS [G9L]: 0.634
SKACARAFGPVDS [R5A L7A]: 0.189
SKACRRLFGFVDS [P10F]: -0.382
SKACRRLKGPVDS [F8K]: 0.239
SKACRRLFGPVYS [D12Y]: 0.318
SKACRSLFGPVDS [R6S]: 0.219
SKACRRLGGPVDS [F8G]: 0.204
SKACRRLFGVVDS [P10V]: -0.0495
SKACGRLFGPVDS [R5G]: 0.0338
SKACRRKFGPVDS [L7K]: 0.35
SKACRRLQGPVDS [F8Q]: 0.0482
SKACRRLFGPVWS [D12W]: 0.0618
SKACRRLFGPKDS [V11K]: 0.152
SKACMRLFGPVDS [R5M]: -0.00292
SKACRREFGPVDS [L7E]: -0.119
SKACERLFGPVDS [R5E]: -0.308
SKNCRRLFGPVDS [A3N]: -0.648
SKACRRLFGPEDS [V11E]: 0.975
